Measurements of several laboratories.
Protocols differ between the studies behind these lines. Several values in a cell are separate wells, animals, samples, runs or records.
MAL12: Alpha-glucosidase MAL12 (MAL12, Saccharomyces cerevisiae S288c, UniProt P53341)
UniProt P53341, sequence (whole entry, looked up): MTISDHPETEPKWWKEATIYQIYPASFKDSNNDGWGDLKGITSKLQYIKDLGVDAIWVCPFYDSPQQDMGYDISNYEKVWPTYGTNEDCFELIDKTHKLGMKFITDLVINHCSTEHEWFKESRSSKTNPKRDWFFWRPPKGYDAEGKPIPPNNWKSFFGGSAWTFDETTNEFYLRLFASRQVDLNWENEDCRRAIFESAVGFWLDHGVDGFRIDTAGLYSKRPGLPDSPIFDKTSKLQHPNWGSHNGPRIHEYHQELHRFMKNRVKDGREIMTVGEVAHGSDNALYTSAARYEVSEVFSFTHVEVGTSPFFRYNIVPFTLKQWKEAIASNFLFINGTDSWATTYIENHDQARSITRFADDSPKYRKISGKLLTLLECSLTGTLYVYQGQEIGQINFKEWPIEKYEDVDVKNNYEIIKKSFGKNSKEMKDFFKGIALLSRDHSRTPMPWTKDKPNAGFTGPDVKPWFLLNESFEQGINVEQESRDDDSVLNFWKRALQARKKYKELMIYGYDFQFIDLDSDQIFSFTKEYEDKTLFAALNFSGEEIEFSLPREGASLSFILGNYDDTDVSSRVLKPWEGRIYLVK
DRD5: D(1B) dopamine receptor (DRD5, Homo sapiens, UniProt P21918)
UniProt P21918, sequence (whole entry, looked up): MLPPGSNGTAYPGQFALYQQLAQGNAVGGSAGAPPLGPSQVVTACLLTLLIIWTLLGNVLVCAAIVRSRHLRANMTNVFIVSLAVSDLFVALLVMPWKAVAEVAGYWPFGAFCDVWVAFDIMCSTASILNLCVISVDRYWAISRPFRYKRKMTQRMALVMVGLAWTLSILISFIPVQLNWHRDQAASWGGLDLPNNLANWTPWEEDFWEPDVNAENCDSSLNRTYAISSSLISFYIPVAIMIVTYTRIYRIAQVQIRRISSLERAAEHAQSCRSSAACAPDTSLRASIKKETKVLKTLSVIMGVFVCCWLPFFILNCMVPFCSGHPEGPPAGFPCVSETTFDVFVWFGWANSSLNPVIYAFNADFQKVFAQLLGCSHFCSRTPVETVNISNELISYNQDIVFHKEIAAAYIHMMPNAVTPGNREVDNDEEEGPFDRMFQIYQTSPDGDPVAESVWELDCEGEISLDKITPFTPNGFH
HTR4: 5-hydroxytryptamine receptor 4 (HTR4, Homo sapiens, UniProt Q13639)
UniProt Q13639, sequence (whole entry, looked up): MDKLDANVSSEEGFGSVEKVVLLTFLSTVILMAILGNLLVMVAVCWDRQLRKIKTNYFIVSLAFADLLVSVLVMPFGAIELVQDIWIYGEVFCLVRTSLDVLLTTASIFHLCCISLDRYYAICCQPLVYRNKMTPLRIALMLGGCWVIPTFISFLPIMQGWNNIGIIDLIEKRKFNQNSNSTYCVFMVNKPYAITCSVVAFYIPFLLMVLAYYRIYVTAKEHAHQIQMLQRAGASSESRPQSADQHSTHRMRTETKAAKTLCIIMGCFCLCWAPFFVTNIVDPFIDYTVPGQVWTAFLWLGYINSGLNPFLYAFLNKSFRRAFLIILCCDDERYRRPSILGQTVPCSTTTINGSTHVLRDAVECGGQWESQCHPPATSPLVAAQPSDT
Urease subunit alpha: Urease subunit alpha (Sporosarcina pasteurii, UniProt P41020)
UniProt Q8IWT6, sequence (whole entry, unmodified, looked up): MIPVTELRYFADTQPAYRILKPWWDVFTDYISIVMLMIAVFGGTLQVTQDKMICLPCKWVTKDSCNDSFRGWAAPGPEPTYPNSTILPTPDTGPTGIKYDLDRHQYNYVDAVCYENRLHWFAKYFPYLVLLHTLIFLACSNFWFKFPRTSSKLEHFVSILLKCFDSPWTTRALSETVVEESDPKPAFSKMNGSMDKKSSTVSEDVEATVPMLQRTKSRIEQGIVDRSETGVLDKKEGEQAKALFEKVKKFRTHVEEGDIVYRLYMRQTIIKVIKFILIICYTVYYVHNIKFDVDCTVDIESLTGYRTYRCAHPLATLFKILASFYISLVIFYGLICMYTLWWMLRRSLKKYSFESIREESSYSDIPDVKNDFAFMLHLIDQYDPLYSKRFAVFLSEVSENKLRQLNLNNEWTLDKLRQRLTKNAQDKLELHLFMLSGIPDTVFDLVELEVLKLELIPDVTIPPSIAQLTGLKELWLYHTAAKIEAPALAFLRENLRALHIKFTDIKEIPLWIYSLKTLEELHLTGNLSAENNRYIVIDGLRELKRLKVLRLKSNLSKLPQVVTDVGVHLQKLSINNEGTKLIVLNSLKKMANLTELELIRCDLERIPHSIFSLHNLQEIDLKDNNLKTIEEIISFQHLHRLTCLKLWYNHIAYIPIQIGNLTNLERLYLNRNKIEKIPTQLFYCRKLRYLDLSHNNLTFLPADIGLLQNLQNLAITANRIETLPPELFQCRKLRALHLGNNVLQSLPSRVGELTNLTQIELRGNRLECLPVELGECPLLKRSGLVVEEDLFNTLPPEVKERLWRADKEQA
UniProt P41020, sequence (whole entry, looked up): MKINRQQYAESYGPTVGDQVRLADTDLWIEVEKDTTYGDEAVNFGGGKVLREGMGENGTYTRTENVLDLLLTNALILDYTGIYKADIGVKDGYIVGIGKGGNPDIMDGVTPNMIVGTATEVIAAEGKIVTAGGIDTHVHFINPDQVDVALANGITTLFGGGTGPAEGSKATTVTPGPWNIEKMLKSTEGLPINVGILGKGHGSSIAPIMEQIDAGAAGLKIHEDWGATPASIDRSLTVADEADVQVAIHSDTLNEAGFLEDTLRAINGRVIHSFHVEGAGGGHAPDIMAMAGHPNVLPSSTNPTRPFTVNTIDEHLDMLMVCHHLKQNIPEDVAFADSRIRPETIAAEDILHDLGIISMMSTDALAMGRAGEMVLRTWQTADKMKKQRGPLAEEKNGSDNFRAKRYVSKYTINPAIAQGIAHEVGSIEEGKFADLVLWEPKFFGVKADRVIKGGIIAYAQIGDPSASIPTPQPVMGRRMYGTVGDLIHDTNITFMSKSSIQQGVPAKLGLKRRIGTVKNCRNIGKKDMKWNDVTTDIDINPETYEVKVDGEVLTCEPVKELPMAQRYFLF
UniProt O35240, sequence (whole entry, looked up): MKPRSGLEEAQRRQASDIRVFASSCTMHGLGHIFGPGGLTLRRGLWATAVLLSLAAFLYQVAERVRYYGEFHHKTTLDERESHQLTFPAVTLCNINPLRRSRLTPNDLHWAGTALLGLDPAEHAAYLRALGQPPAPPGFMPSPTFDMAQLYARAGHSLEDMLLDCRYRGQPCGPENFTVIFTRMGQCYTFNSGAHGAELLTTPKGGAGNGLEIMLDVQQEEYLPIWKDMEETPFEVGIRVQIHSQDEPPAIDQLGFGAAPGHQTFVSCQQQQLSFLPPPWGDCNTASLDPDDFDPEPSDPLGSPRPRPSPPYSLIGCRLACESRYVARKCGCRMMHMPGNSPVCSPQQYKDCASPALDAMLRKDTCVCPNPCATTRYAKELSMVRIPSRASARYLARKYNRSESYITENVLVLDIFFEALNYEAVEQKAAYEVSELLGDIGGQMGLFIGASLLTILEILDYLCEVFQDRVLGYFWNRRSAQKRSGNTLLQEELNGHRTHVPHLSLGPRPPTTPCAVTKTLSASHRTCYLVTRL
UniProt Q16853, sequence (whole entry, looked up): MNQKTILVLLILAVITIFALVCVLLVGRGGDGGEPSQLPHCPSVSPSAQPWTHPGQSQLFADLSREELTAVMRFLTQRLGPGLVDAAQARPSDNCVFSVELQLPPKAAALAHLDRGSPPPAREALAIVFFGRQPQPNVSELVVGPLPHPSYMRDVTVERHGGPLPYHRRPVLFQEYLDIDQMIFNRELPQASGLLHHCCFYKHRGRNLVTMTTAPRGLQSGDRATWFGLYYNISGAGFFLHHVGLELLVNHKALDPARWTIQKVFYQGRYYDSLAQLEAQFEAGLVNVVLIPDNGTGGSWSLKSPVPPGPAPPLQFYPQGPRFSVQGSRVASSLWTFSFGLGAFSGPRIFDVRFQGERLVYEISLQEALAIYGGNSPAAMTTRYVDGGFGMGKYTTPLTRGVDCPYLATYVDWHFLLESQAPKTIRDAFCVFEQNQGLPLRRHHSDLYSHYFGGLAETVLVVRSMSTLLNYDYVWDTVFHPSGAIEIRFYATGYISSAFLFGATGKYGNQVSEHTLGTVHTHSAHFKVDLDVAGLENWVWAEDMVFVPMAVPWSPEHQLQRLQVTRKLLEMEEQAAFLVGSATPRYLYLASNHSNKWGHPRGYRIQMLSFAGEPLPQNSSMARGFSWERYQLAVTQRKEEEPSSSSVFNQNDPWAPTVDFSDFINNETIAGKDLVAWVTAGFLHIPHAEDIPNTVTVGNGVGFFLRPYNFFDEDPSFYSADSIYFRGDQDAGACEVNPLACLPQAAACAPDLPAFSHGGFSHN
UniProt Q16539, sequence (whole entry, looked up): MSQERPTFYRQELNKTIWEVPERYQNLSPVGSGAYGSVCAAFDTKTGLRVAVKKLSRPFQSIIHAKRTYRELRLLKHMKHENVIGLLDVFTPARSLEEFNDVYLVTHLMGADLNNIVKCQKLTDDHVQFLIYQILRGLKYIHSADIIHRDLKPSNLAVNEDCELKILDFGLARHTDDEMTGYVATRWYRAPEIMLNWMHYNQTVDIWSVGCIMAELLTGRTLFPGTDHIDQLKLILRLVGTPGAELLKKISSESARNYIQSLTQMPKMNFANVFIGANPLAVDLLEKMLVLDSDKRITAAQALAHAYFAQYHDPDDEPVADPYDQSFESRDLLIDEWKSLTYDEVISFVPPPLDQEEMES
UniProt P08908, sequence (whole entry, looked up): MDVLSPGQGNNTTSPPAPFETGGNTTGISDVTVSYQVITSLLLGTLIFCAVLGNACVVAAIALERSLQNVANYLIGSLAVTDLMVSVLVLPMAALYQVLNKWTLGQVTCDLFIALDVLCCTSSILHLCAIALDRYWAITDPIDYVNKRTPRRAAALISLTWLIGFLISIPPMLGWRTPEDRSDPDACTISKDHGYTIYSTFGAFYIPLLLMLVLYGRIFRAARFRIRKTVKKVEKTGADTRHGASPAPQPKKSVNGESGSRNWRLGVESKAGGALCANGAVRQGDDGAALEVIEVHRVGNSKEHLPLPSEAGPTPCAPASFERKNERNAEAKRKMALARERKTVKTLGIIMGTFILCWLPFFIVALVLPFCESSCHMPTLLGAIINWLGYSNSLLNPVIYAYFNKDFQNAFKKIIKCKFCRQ

CN(C(=O)n1cnc(-c2ccc[n+]([O-])c2)c1)C1CCCCC1 has an inhibition of -3.96% (CYSLTR1 (Homo sapiens, UniProt Q9Y271); 10 µM).
O=c1c(/C=N/NC(=S)Nc2cccc([N+](=O)[O-])c2)coc2cc(F)ccc12 gave an inhibition of 90.9% (MAL12; enzyme activity, inhibitor; 500 µM).
O=C1c2ccccc2CCN1CCCCN1CCN(c2ccccn2)CC1 gave an inhibition of 31.5% (DRD5; radioligand binding; concentration not given, with: [3H]SCH23390).
O=C(NO)c1ccc(CN2CCCCc3ccccc32)c(F)c1 gave an inhibition of -13.7% (DRD5; radioligand binding, radioligand displacement; 10 µM).
For COc1ccc2c(c1)C(=O)N(CCCN1CCN(c3ccccc3OC)CC1)C2, the inhibition was 92.5% (HTR1A (Homo sapiens, UniProt P08908); radioligand binding; concentration not given, with: [3H]8-OH-DPAT).
CCN(CC)C(=S)S — result for inhibition: “no inhibition” (PTPN22 (Homo sapiens, UniProt Q9Y2R2); enzyme activity, inhibitor; concentration not given, with: DiFMUP).
CC[C@@H]1[C@H](F)C(=O)N[C@@H]1COc1nccc2cc(C(N)=O)c(OC)cc12 has an inhibition of -6.2% (CDK14 (Homo sapiens, UniProt O94921); ATP probe binding, KiNativ profiling, measured: Lys1 probe site; THP-1 cell lysate; 0.01 mM).
Clc1cccc(OC[C@H]2CN(CCN3CCc4ccccc43)CCO2)c1 gave an inhibition of 27.8% (HTR4; radioligand binding; concentration not given).
The inhibition of Cc1cc(-c2ccnc3[nH]cc(F)c23)cc(F)c1[C@@]1(O)[C@H](C)CN(C(=O)CN)C[C@@H]1C is reported as -4.6% (AKT2 and AKT3; ATP probe binding, KiNativ, measured: ATP loop; HEK293T cell lysate; 0.1 µM).
COc1ccc(-c2nn(-c3ccc(S(C)(=O)=O)cc3)cc2/C=N/N=c2\[nH]c(-c3ccc(Br)cc3)cs2)cc1 gave an inhibition of 95% (EGFR (Homo sapiens, UniProt P00533, L858R); kinase activity, inhibitor; 100 µM).
The inhibition of c1cncc(OC[C@@H]2CN(CCN3CCc4ccccc43)CCO2)c1 is reported as 8.8% (HTR4; radioligand binding; concentration not given).
With Cc1cc2c(cc1N1C(=O)c3cccc4c(CCCO)ccc(c34)C1=O)n(C)c(=O)n2C (racemic) the inhibition was 8.8% (Bromodomain testis-specific protein, BD2 (BRDT, Homo sapiens, UniProt Q58F21); binding, BROMOscan binding; 1000 nM).
For CCc1ccc(NC(=O)CSc2nc(-c3cccc(OC)c3)nc3c2Cc2c(CO)cnc(C)c2O3)cc1, inhibition read “no inhibition” (MAPK14 (Homo sapiens, UniProt Q16539); enzyme activity, inhibitor, TR-FRET; up to 30 µM).
Cc1ccnc(C)c1OC[C@H]1CN(CCN2CCc3ccccc32)CCO1 has an inhibition of 27.1% (DRD5; radioligand binding; concentration not given, with: [3H]SCH23390).
The inhibition of C[C@@H]1CCO[C@H]2Cn3cc(C(=O)NCc4ccc(F)cc4F)c(=O)c(O)c3C(=O)N12 is reported as -7.12% (SLC29A4 (Homo sapiens, UniProt Q7RTT9); transport; MDCK-II, transfected; 1 µM, with: MPP+ 10 µM).
With Fc1ccc(/C=C/C=N/NC(=S)Nc2cccc(F)c2)cc1 the inhibition was 82.1% (Urease subunit alpha; enzyme activity, indophenol method; 500 µM).
For CC(C)[C@H](C(=O)Nc1ccc(C(=O)NO)cc1)c1ccccc1, the viability was 27.4% (OCI-Ly1; 0.5 µM, 120 h).
For NC/C(=C\F)COc1cccc(Cn2c(=S)[nH]c(=O)c3[nH]cnc32)c1, the inhibition was 100% (AOC3 (Homo sapiens, UniProt Q16853); H2O2 production, Amplex Red; 3.333 µM, recombinant human enzyme).
Cc1cc(-c2ccnc3[nH]cc(F)c23)cc(F)c1[C@@]1(O)[C@H](C)CN(C2CCS(=O)(=O)CC2)C[C@@H]1C has an inhibition of -60.5% (AKT2 and AKT3; ATP probe binding, KiNativ, measured: ATP loop; HEK293T cell lysate; 10 µM).
With Clc1cncc(OC[C@H]2CN(CCN3CCc4ccccc43)CCO2)c1 the inhibition was 10.2% (DRD5; radioligand binding; concentration not given, with: [3H]SCH23390).
Fc1ccc(/C=C/C=N/NC(=S)Nc2cccc(Cl)c2Cl)cc1 has an inhibition of 82.3% (Urease subunit alpha; enzyme activity, indophenol method; 500 µM).
COc1ccc(-c2coc3c(Cn4cccn4)c(O)ccc3c2=O)cc1OC gave an inhibition of 27.7% (MAL12; inhibitor; 25 µM).
CC(C)c1noc2ncc(C(=O)c3ccccc3O)cc12 has an inhibition of 0.28% and 2.38% and 6.33% and 8.74% (Asic3 (Rattus norvegicus, UniProt O35240); ion current, inhibitor, whole-cell patch clamp; 10 µM).
For O=C1N=C(N2CCCCN2)S/C1=C\c1ccc(F)cc1O, the inhibition was < 10% (rat alpha2-adrenergic receptor; radioligand binding; rat cerebral cortex; 10 µM, with: [3H]RX 821002).
The viability of NC(=O)c1cccnc1 is reported as 138% (OCI-Ly1; 0.5 µM, 120 h).
With COc1ccc2c(c1)CN(CCCN1CCN(c3ccccc3OC)CC1)C2=O the inhibition was 10.7% (HTR4; radioligand binding; concentration not given).
The inhibition of Cc1nn(-c2nc3c(F)cc(F)cc3s2)c(O)c1C(c1cccc(C(F)(F)F)c1)c1c(C)nn(-c2nc3c(F)cc(F)cc3s2)c1O is reported as 72.9% (CGAS (Homo sapiens, UniProt Q8N884); enzyme activity, inhibitor, pyrophosphatase-coupled; 50 µM, 1.5 h, with: HT-DNA).
For O=C(CN1CCO[C@H](COc2cccnc2)C1)N1CCc2ccccc21, the inhibition was -7.2% (DRD5; radioligand binding; concentration not given, with: [3H]SCH23390).
O=C(Nc1cccc2c(=O)cc(-c3nnn[nH]3)oc12)c1ccc(OCCCCc2ccccc2)cc1 gave an inhibition of -7.99% and -4.11% and -8.35% and 12.6% and 6.68% and -6.08% (LRRC8A/LRRC8C (Homo sapiens, UniProt Q8IWT6+Q8TDW0, Y124F/Y126F); ion current, whole-cell patch clamp; HCT LRRC8-/- cells; 0.1 µM, +100 mV, Y124F/Y126F heteromers).
N#Cc1cccc(NC(=S)N/N=C/C=C/c2ccc(F)cc2)c1 has an inhibition of 78.6% (Urease subunit alpha; enzyme activity, indophenol method; 500 µM).
For COc1cc(C(=O)NS(=O)(=O)c2ccccc2C)ccc1Cc1cn(C)c2ccc(NC(=O)OC3CCCC3)cc12, the inhibition was 64.4% and 65% and 77.4% and 54.5% (Volume-regulated anion channel subunit LRRC8C, part LRRC8A IL1 chimera (LRRC8C, Homo sapiens, UniProt Q8TDW0, M48D); ion current, inhibitor, whole-cell patch clamp; HCT LRRC8-/- cells; 100 µM, constitutively open channel, +100 mV).
With Cc1oc2c(Cn3cccn3)c(O)ccc2c(=O)c1C the inhibition was < 0% (MAL12; inhibitor; 25 µM).
The inhibition of COc1cc2ncnc(Nc3ccc(Oc4ccccc4)c(C)c3C)c2cc1OC is reported as -2% (5'-AMP-activated protein kinase catalytic subunit alpha-1, with beta1, gamma1 (PRKAA1, Homo sapiens, UniProt Q13131); kinase activity, inhibitor; 1 µM).
COc1c(C#N)ccnc1N1C2CCC1CN(C(=O)c1cccnc1-n1cccn1)C2 has an inhibition of 7.4% (sodium channel site 2; binding; 10 µM).
With Cn1cc(-c2cnc3ccc(NC(=O)Nc4ccc(F)c(Br)c4)cc3n2)cn1 the inhibition was 9.7% (IKBKB (Homo sapiens, UniProt O14920); kinase binding, KiNativ profiling, measured: Lys2 peptide; PANC-1 lysate; 10 µM).

A few entries again:
The inhibition of Cc1cc(-c2ccnc3[nH]cc(F)c23)cc(F)c1[C@@]1(O)[C@H](C)CN(C(=O)CN)C[C@@H]1C is reported as -4.6% (AKT2 and AKT3; ATP probe binding, KiNativ, measured: ATP loop; HEK293T cell lysate; 0.1 µM).
O=C1c2ccccc2CCN1CCCCN1CCN(c2ccccn2)CC1 gave an inhibition of 31.5% (DRD5; radioligand binding; concentration not given, with: [3H]SCH23390).
For NC/C(=C\F)COc1cccc(Cn2c(=S)[nH]c(=O)c3[nH]cnc32)c1, the inhibition was 100% (AOC3 (Homo sapiens, UniProt Q16853); H2O2 production, Amplex Red; 3.333 µM, recombinant human enzyme).
N#Cc1cccc(NC(=S)N/N=C/C=C/c2ccc(F)cc2)c1 has an inhibition of 78.6% (Urease subunit alpha; enzyme activity, indophenol method; 500 µM).
The inhibition of C[C@@H]1CCO[C@H]2Cn3cc(C(=O)NCc4ccc(F)cc4F)c(=O)c(O)c3C(=O)N12 is reported as -7.12% (SLC29A4 (Homo sapiens, UniProt Q7RTT9); transport; MDCK-II, transfected; 1 µM, with: MPP+ 10 µM).
